Measurements pooled from the literature.
Protocols differ between the studies behind these lines. “And” joins repeats or separate records; there may be more than shown. In brackets after ≈: the same amount, converted by molar mass.

`Cc1ccc(Sc2cc(NCCCO)c([N+](=O)[O-])c3nonc23)cc1` has a maximal activity of 97% (Mus musculus; gene silencing, high-content imaging; LDR reporter GFP cells; retest run 2).
`Cn1cc(-c2ccc(-c3cncc(Cl)c3N3CCC4(CCNC4=O)CC3)cc2)cn1`: “fold change in expression” -3.32 (COLO 205; microarray, refers to: SPIB; concentration not given, 2 h, gene set SPI-B; reference: untreated cells).
With `Cc1cc(NC(=O)C2CCCN(S(=O)(=O)c3cccc4nonc34)C2)ccc1Br` (stereo not drawn) the maximal activity was 28% (Mus musculus; gene silencing, high-content imaging; LDR reporter GFP cells; retest run 1).
Under “viral RNA reduction”, `CCn1c(=O)c(-c2cc[nH]n2)cc2c(C)nc(N)nc21` is recorded as greater than 90% (Enterovirus A71; post-entry viral replication, RT-qPCR; RD; 4 µM).
For `CN1CCN(CCCNc2nc3ccc(Oc4ccc(NC(=O)Nc5cc(C(F)(F)F)ccc5F)cc4)cc3[nH]2)CC1`, the selectivity was 1 (Trypanosoma brucei; unit not given; reference: pEC50 T. brucei minus pTC50 HepG2).
For `CN[C@H](CC(C)C)C(=O)N[C@H]1C(=O)N[C@@H](CC(N)=O)C(=O)N[C@H]2C(=O)N[C@H]3C(=O)N[C@H](C(=O)N[C@H](C(=O)O)c4cc(O)cc(O)c4-c4cc3ccc4O)[C@H](O)c3ccc(c(Cl)c3)Oc3cc2cc(c3O[C@@H]2O[C@H](CO)[C@@H](O)[C@H](O)[C@H]2O[C@H]2C[C@](C)(N)[C@H](O)[C@H](C)O2)Oc2ccc(cc2Cl)[C@H]1O`, the MIC90 was 1 µg/mL (≈ 0.69 µM) (Streptococcus pneumoniae; broth microdilution; penicillin-resistant isolates).
`CCN(CC)Cc1ccc(Nc2nccc(-c3cnn4ncccc34)n2)cc1` has a selectivity of greater than 3.5 (Trypanosoma brucei; unit not given; reference: pEC50 T. brucei minus pTC50 HepG2).
The cell protection of `CC(C)n1ncc2c(C(=O)NCC3(C)CNC3)cc(C3CC3)nc21` is reported as 0.265% and 0% and -0.133% (Enterovirus D68; cytopathic effect; RD, US/MO/14-18947; 5 nM).
For `O=C(NCCN1CCCC1=O)c1ccc(C2CCCCC2)cc1`, the hepatic clearance was 63 mL/min/kg (hepatocyte stability; cryopreserved mouse hepatocytes; 1 µM).
With `O=C1Nc2ccc(-c3cccnc3)cc2C1=Cc1cc(Br)c(O)c(Br)c1` the selectivity was 1.2 (Trypanosoma brucei; unit not given; reference: pEC50 T. brucei minus pTC50 HepG2).
`COc1ccc2c(C)cc(SCC(=O)N(C)C3CCS(=O)(=O)C3)nc2c1` (stereo not drawn) gave a maximal activity of 20% (Mus musculus; gene silencing, high-content imaging; LDR reporter GFP cells; retest run 2).
With `O=C(Nc1ccc(C2CCCCC2)cc1)c1cn[nH]c1` the hepatic clearance was 70 mL/min/kg (mouse liver microsomes; 1 µM).

Excerpt of the above:
With `O=C(Nc1ccc(C2CCCCC2)cc1)c1cn[nH]c1` the hepatic clearance was 70 mL/min/kg (mouse liver microsomes; 1 µM).
